Results pooled from the literature.
Lines come from different studies, so protocols differ. ± gives the spread as reported. Values after ≈ are worked out from the molar mass of the structure shown.
Sequence of UniProt Q53GS9 (whole entry, looked up): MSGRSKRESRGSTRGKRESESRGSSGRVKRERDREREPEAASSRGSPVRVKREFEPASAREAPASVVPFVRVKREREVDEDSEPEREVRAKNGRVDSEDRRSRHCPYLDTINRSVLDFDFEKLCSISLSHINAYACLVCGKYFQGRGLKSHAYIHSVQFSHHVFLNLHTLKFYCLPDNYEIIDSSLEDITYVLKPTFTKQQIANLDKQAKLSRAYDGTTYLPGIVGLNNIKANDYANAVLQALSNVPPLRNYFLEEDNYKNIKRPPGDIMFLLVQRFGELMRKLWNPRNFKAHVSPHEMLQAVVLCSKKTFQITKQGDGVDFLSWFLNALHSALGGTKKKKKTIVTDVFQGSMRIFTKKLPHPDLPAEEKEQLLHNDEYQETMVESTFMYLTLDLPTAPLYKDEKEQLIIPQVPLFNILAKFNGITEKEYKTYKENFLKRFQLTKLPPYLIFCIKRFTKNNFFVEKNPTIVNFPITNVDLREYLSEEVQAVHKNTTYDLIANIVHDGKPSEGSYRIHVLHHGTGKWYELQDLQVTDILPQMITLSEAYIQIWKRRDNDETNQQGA
Sequence of UniProt Q9Y2K6 (whole entry, looked up): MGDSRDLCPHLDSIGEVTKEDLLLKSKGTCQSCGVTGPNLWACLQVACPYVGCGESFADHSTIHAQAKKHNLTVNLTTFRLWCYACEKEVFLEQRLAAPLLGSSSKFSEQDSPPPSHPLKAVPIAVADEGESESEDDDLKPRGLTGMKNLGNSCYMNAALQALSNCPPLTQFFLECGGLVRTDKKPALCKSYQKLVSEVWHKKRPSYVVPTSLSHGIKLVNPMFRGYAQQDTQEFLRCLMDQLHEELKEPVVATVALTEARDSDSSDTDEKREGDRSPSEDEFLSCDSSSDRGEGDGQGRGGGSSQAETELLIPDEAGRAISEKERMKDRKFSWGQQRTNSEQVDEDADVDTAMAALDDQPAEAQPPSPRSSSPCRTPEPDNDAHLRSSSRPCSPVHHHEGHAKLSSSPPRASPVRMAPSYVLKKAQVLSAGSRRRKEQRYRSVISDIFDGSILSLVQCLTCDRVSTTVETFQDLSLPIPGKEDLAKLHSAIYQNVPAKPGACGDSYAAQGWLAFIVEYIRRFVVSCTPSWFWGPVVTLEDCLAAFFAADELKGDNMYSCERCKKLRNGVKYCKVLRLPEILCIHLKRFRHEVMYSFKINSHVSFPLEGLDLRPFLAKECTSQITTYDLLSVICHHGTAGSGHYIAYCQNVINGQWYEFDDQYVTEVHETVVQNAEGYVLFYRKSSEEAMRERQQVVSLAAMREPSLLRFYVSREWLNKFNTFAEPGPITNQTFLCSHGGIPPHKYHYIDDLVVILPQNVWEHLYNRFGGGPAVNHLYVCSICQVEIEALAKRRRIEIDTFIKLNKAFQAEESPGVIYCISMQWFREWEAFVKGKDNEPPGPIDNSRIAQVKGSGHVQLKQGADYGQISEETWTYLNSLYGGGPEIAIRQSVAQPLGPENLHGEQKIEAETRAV

| Compound | tested on | assay | system | conditions | how to read | quantity | result |
| --- | --- | --- | --- | --- | --- | --- | --- |
| Nc1nc(-c2ccccc2)nc2[nH]nc(Nc3ccc(C(F)(F)F)cc3)c12 | coxsackievirus B3 | – | 31-1-93, NMRI mice, CVB3 chronic myocarditis | oral, 100 mg/kg twice daily, day 19, dosed days 0 to 6, score scale 0 to 7 | direction not given | clinical score | 0 |
| CC(C)(C)c1cc(NC(=O)Nc2ccc(-c3cn4c(n3)sc3cc(OCCN5CCOCC5)ccc34)cc2)no1 | iCell Cardiomyocytes (hiPSC-derived) | cellular impedance | – | concentration not given, 24 h | relative to: control | cell index | 99.3% |
| C[C@H](Oc1ccc(Br)cc1-c1ccon1)C(=O)O | – | muscle velocity recovery cycles | human, tibialis anterior muscle | 1200 mg single dose, 3.5 h post-dose, frequency ramp, first response at 15 Hz | – | peak amplitude change | 120% |
| CC(C)C[C@H](NC(=O)C[C@H](O)[C@H](CC(C)C)NC(=O)[C@H](Cc1c[nH]cn1)NC(=O)CNC(=O)[C@@H](NC(=O)[C@H](C)NC(=O)[C@H](Cc1c[nH]c2ccccc12)NC(=O)[C@H](CCC(N)=O)NC(=O)[C@@H](Cc1ccccc1)NC(=O)COCCOCCNC(=O)CN1CCN(CC(=O)O)CCN(CC(=O)O)CCN(CC(=O)O)CC1)C(C)C)C(N)=O [lutetium-177 labelled] | – | – | female BALB/c nu/nu mice, pancreas | intravenous, 50 pmol, 24 h | – | tissue uptake | 0.03 ± 0.01 %ID/g |
| C=CC(=O)Nc1cccc(Oc2nc(Nc3ccc(N4CCN(C)CC4)c(F)c3)nc3[nH]ccc23)c1 | NLRP3 inflammasome (mouse) | – | mouse BMDM | 10 µM | – | inhibition | 95.1% |
| CCN1CCN(Cc2ccc(NC(=O)Nc3ccc(Oc4cc(NC)ncn4)cc3)cc2C(F)(F)F)CC1 | iCell Cardiomyocytes (hiPSC-derived) | xCELLigence Cardio impedance | – | concentration not given, 2 h | relative to: control | beat amplitude | 102% |
| CC(=O)CC(=O)CCC(=O)O | – | binding, equilibrium dialysis LC-MS | – | 5 µM, thermostabilized A2AR-BRIL construct | relative to: no-protein control, direction not given | z-scored log2 fold change | -0.353 |
| O=C(/C=C\n1cnc(-c2cc(C(F)(F)F)cc(C(F)(F)F)c2)n1)NNc1ccccn1 | human alphaherpesvirus 1 | live-cell GFP imaging | primary human fibroblasts, K26 GFP | – | – | IC50 | > 60 µM |
| Cc1cc2c(F)c(Oc3ncnn4cc(OC[C@@H](C)O)c(C)c34)ccc2[nH]1 | iCell Cardiomyocytes (hiPSC-derived) | xCELLigence Cardio impedance | – | concentration not given, 2 h | relative to: control | beat rate | 71% |
| COc1ccc(-c2nc(N3CCOCC3)c3sc(CN(C)c4ncc(C(=O)NO)cn4)cc3n2)cn1 | human alphaherpesvirus 1 | – | primary human keratinocytes, K26 GFP | – | relative to: CC50 over IC50 | selectivity index | 2.07 |
| CCOc1cc2ncc(C#N)c(Nc3ccc(OCc4ccccn4)c(Cl)c3)c2cc1NC(=O)/C=C/CN(C)C | NLRP3 inflammasome (mouse) | – | mouse BMDM | 10 µM | – | inhibition | 31.9% |
| O=C(O)Cc1cccc2cccnc12 | Ubiquitin carboxyl-terminal hydrolase 39, ZnF-UBD domain (Homo sapiens, UniProt Q53GS9) | – | – | – | – | Kd | > 1000 µM |
| Clc1ccc(Nc2nnc(Cc3ccncc3)c3ccccc23)cc1 | iCell Cardiomyocytes (hiPSC-derived) | xCELLigence Cardio impedance | – | concentration not given, 2 h | relative to: control | beat amplitude | 101% |
| N#Cc1ccn2c(-c3ccncc3)c(-c3ccc(F)cc3)nc2c1 | – | kinase binding, competitor, MIB/MS competition, measured: YCK2 | Candida albicans cell lysate | 1 µM | relative to: DMSO | log2 fold change | -2.43 |
| N[C@@H](Cc1ccc(O)cc1)C(=O)O | – | binding, equilibrium dialysis LC-MS | – | 5 µM, thermostabilized A2AR-BRIL construct | relative to: no-protein control, direction not given | z-scored log2 fold change | 0.364 |
| C[C@@H]1COCCN1c1cc(C2([S@](C)(=N)=O)CC2)nc(-c2cc[nH]c3nccc2-3)n1 | NLRP3 inflammasome (mouse) | – | mouse BMDM | 10 µM | – | inhibition | 74.4% |
| CC(C)C[C@@H]1NC(=O)[C@H](CC(=O)O)NC(=O)CNC(=O)[C@H](CCCNC(=N)N)NC(=O)[C@H](Cc2ccc(O)cc2)NC(=O)[C@H](CCCCNC(=O)CCc2cn(CCCNC(=O)CCP(=O)(O)CN3CCN(CP(=O)(O)CCC(=O)NCCCn4cc(CCC(=O)NCCCC[C@H]5C(=O)N[C@@H](Cc6ccc(O)cc6)C(=O)N[C@@H](CCCNC(=N)N)C(=O)NCC(=O)N[C@@H](CC(=O)O)C(=O)N[C@@H](CC(C)C)C(=O)N[C@@H](C)C(=O)N[C@@H](Cc6ccc(O)cc6)C(=O)N6CCC[C@@H]6C(=O)N5C)nn4)CCN(CP(=O)(O)CCC(=O)NCCCn4cc(CCC(=O)NCCCC[C@H]5C(=O)N[C@@H](Cc6ccc(O)cc6)C(=O)N[C@@H](CCCNC(=N)N)C(=O)NCC(=O)N[C@@H](CC(=O)O)C(=O)N[C@@H](CC(C)C)C(=O)N[C@@H](C)C(=O)N[C@@H](Cc6ccc(O)cc6)C(=O)N6CCC[C@@H]6C(=O)N5C)nn4)CC3)nn2)N(C)C(=O)[C@H]2CCCN2C(=O)[C@H](Cc2ccc(O)cc2)NC(=O)[C@H](C)NC1=O [gallium-68 labelled] | – | PET imaging | SCID mice with H2009 tumour, tumour | 75 min | – | tissue uptake | 2.3 ± 0.2 %ID/g |
| OC(CCN1CCCCC1)(c1ccccc1)C1CC2C=CC1C2 (centres unmarked) | – | resting-state EEG | healthy elderly humans | oral, 4 mg, eyes open, LS mean | relative to: baseline | change, Gamma EEG power, in Fz-Cz | 33.2% |
| Cn1ncc(Cl)c1-c1cc(C(=O)N[C@H](CN)Cc2cccc(F)c2)sc1Cl | NLRP3 inflammasome (mouse) | – | mouse BMDM | 10 µM | – | inhibition | 0.256% |
| Nc1nc2c(ncn2[C@H]2C[C@H](O)[C@@H](COP(=O)(O)OP(=O)(O)OP(=O)(O)O)O2)c(=O)[nH]1 | – | binding, equilibrium dialysis LC-MS | – | 5 µM, thermostabilized A2AR-BRIL construct | relative to: no-protein control, direction not given | z-scored log2 fold change | -0.441 |
| CCOc1cc2ncc(C#N)c(Nc3ccc(F)c(Cl)c3)c2cc1NC(=O)/C=C/CN(C)C | NLRP3 inflammasome (mouse) | – | mouse BMDM | 10 µM | – | inhibition | 83.6% |
| C/C(=C/C(=O)O)C(=O)O | – | binding, equilibrium dialysis LC-MS | – | 5 µM, thermostabilized A2AR-BRIL construct | relative to: no-protein control, direction not given | z-scored log2 fold change | 0.578 |

| Compound | tested on | assay | system | conditions | how to read | quantity | result |
| --- | --- | --- | --- | --- | --- | --- | --- |
| CC(C)Nc1cc(-c2c[nH]c(C(=O)N[C@H](CO)c3cccc(Cl)c3)c2)c(Cl)cn1 | NLRP3 inflammasome (mouse) | – | mouse BMDM | 10 µM | – | inhibition | -29.8% |
| NC(=O)c1cnc2[nH]ccc2c1N[C@@H]1[C@@H]2CC3C[C@H]1C[C@@](O)(C3)C2 | – | CD8+ naive T cells, flow cytometry | Caucasian humans, peripheral blood | 20 mg single dose | relative to: baseline | percent change | -0.28% |
| O=C(Nc1ccc([N+](=O)[O-])cc1Cl)c1cc(Cl)ccc1O | human alphaherpesvirus 1 | – | primary human fibroblasts, K26 GFP | CC50 capped at 10.00 µM | relative to: CC50 over IC50 | selectivity index | > 27 |
| CC(C)(C)Cn1c(N)nc2ccc(-c3[nH]c(C(C)(C)C)nc3-c3ccc(F)cc3)nc21 | NLRP3 inflammasome (mouse) | – | mouse BMDM | 10 µM | – | inhibition | 13.2% |
| CC(CN)C(=O)O (centres unmarked) | – | binding, equilibrium dialysis LC-MS | – | 5 µM, thermostabilized A2AR-BRIL construct | relative to: no-protein control, direction not given | z-scored log2 fold change | 0.292 |
| CC1(C)CNc2cc(NC(=O)c3cccnc3NCc3ccncc3)ccc21 | iCell Cardiomyocytes (hiPSC-derived) | xCELLigence Cardio impedance | – | concentration not given, 2 h | relative to: control | beat amplitude | 98.3% |
| Cn1cc(-c2ccc(-c3cncc(Cl)c3N3CCC4(CCNC4=O)CC3)cc2)cn1 | COLO 205 | gene expression, microarray, measured: SLC39A8 mRNA | – | concentration not given, 2 h | relative to: untreated cells | log2 fold change | 2.3 |
| Nc1nc2c(c(=O)[nH]1)N=C(CNc1ccc(C(=O)N[C@@H](CCC(=O)O)C(=O)O)cc1)CN2 | – | binding, equilibrium dialysis LC-MS | – | 5 µM, thermostabilized A2AR-BRIL construct | relative to: no-protein control, direction not given | z-scored log2 fold change | 1.66 |
| Oc1ccccc1-c1n[nH]cc1-c1ccnc2ccccc12 | orf19.6492 Candida albicans | kinase binding, MIB/MS competition | Candida albicans lysate | 1 µM | relative to: DMSO | log2 fold change | 0.07 |
| CC(C)NCC(O)c1ccc(O)c(O)c1 (centres unmarked) | – | – | ventricular cardiomyocytes, C57BL/6 mouse | dose not given, 0.724 s | – | sarcomere length | 1.72 µm |
| Cc1cccc(C)c1N(CC(=O)Nc1ccc(-c2ncon2)cc1)C(=O)C1CCS(=O)(=O)CC1 | human alphaherpesvirus 1 | viral replication, GFP signal | K26 GFP, 3D skin equivalent, air-liquid | 48 h | – | IC50 | 0.15 µM |
| c1coc(-c2n[nH]cc2-c2ccnc3ccccc23)c1 | SSK2 (Candida albicans) | kinase binding, MIB/MS competition | Candida albicans lysate | 10 µM | relative to: DMSO | log2 fold change | -0.16 |
| O=c1cc[nH]c(=O)[nH]1 | – | binding, equilibrium dialysis LC-MS | – | 5 µM, thermostabilized A2AR-BRIL construct | relative to: no-protein control, direction not given | z-scored log2 fold change | 0.436 |
| C[S+]([O-])c1ccc(-c2nc(-c3ccncc3)c(-c3ccc(F)cc3)[nH]2)cc1 (centres unmarked) | iCell Cardiomyocytes (hiPSC-derived) | xCELLigence Cardio impedance | – | concentration not given, 2 h | relative to: control | beat amplitude | 100% |
| O=C(O)CCc1ccccc1OCc1ccccn1 | Ubiquitin carboxyl-terminal hydrolase 20, ZnF-UBD domain (USP20, Homo sapiens, UniProt Q9Y2K6) | – | – | – | – | Kd | 249 µM |
| Cc1cccc(-c2[nH]c(CNc3ccccc3F)nc2-c2ccc3ncnn3c2)n1 | NLRP3 inflammasome (mouse) | – | mouse BMDM | 10 µM | – | inhibition | 15.7% |
| COC(=O)[C@@H](CCSC)NCc1cc2ccccc2nc1SC | Pseudomonas aeruginosa | – | – | 32 µg/mL, together with: pentamidine 50 µM | relative to: control | growth | 81% |
| Cc1nc(N(C)C(=O)Cc2ccc(-c3ccccn3)cc2)sc1S(N)(=O)=O | human alphaherpesvirus 1 | – | K26 GFP, 3D skin equivalent, submerged | – | relative to: CC50 over IC50 | selectivity index | > 20 |
| Oc1cccc(-c2nc(N3CCOCC3)c3oc4ncccc4c3n2)c1 | iCell Cardiomyocytes (hiPSC-derived) | xCELLigence Cardio impedance | – | concentration not given, 2 h | relative to: control | beat rate | 105% |
| CN[C@H](CC(C)C)C(=O)N[C@H]1C(=O)N[C@@H](CC(N)=O)C(=O)N[C@H]2C(=O)N[C@H]3C(=O)N[C@H](C(=O)N[C@H](C(=O)O)c4cc(O)cc(O)c4-c4cc3ccc4O)[C@H](O)c3ccc(c(Cl)c3)Oc3cc2cc(c3O[C@@H]2O[C@H](CO)[C@@H](O)[C@H](O)[C@H]2O[C@H]2C[C@](C)(N)[C@H](O)[C@H](C)O2)Oc2ccc(cc2Cl)[C@H]1O | Streptococcus pneumoniae | – | penicillin-resistant, 10 isolates | serum 0% | – | MIC50 | 0.5 mg/L (≈ 0.345 µM) |
| O=C(CO)[C@@H](O)[C@H](O)[C@H](O)CO | – | binding, equilibrium dialysis LC-MS | – | 5 µM, thermostabilized A2AR-BRIL construct | relative to: no-protein control, direction not given | z-scored log2 fold change | -1.54 |
| C=CC(=O)Nc1cc2c(Nc3ccc(F)c(Cl)c3)ncnc2cc1OCCCN1CCOCC1 | iCell Cardiomyocytes (hiPSC-derived) | CellTiter-Glo | – | concentration not given, 24 h | relative to: control | ATP level | 98.3% |

Some of these lines once more:
| Compound | tested on | assay | system | conditions | how to read | quantity | result |
| --- | --- | --- | --- | --- | --- | --- | --- |
| O=C(/C=C\n1cnc(-c2cc(C(F)(F)F)cc(C(F)(F)F)c2)n1)NNc1ccccn1 | human alphaherpesvirus 1 | live-cell GFP imaging | primary human fibroblasts, K26 GFP | – | – | IC50 | > 60 µM |
| C=CC(=O)Nc1cc2c(Nc3ccc(F)c(Cl)c3)ncnc2cc1OCCCN1CCOCC1 | iCell Cardiomyocytes (hiPSC-derived) | CellTiter-Glo | – | concentration not given, 24 h | relative to: control | ATP level | 98.3% |
| C[S+]([O-])c1ccc(-c2nc(-c3ccncc3)c(-c3ccc(F)cc3)[nH]2)cc1 (centres unmarked) | iCell Cardiomyocytes (hiPSC-derived) | xCELLigence Cardio impedance | – | concentration not given, 2 h | relative to: control | beat amplitude | 100% |
| CCOc1cc2ncc(C#N)c(Nc3ccc(OCc4ccccn4)c(Cl)c3)c2cc1NC(=O)/C=C/CN(C)C | NLRP3 inflammasome (mouse) | – | mouse BMDM | 10 µM | – | inhibition | 31.9% |
| Cc1cccc(-c2[nH]c(CNc3ccccc3F)nc2-c2ccc3ncnn3c2)n1 | NLRP3 inflammasome (mouse) | – | mouse BMDM | 10 µM | – | inhibition | 15.7% |
| Nc1nc2c(c(=O)[nH]1)N=C(CNc1ccc(C(=O)N[C@@H](CCC(=O)O)C(=O)O)cc1)CN2 | – | binding, equilibrium dialysis LC-MS | – | 5 µM, thermostabilized A2AR-BRIL construct | relative to: no-protein control, direction not given | z-scored log2 fold change | 1.66 |
| O=C(CO)[C@@H](O)[C@H](O)[C@H](O)CO | – | binding, equilibrium dialysis LC-MS | – | 5 µM, thermostabilized A2AR-BRIL construct | relative to: no-protein control, direction not given | z-scored log2 fold change | -1.54 |
